Published values pooled from the literature.
Numbered parts are unrelated; each lists some results of a single study. Substitutions count along the parent as printed.

Sample 1
Target: Ras GTPase-activating protein-binding protein 1, full length (G3BP1, Homo sapiens, UniProt Q13283)
Chain of UniProt Q13283 (whole entry, looked up): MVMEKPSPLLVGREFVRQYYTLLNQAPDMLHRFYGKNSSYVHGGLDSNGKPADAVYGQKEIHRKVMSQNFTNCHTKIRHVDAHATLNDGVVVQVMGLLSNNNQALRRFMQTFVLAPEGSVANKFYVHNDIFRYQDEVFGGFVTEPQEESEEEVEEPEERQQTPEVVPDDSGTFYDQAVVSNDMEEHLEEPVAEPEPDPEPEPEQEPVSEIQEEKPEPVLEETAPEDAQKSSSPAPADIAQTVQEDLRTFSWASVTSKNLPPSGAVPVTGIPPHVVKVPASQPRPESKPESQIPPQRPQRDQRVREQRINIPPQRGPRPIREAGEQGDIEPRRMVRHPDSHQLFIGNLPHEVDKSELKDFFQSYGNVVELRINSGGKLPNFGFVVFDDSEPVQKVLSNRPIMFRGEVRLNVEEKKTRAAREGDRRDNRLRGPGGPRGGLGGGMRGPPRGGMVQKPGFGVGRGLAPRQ
Technique: RNA Bind-n-Seq
Form: RNA
Medium: in vitro
Concentration: 200 nM
Setting: whole 134-nt RNA, ends assumed
With: 150 mM KCl
Reference: input library
Direction: higher = stronger binding
Oligonucleotide | log2 enrichment
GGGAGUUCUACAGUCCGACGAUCGCAGGAAGUAAAAACAAAUGGAAAUGCUUCGGAUAGUGGCAGGGGUGGGGGUUGCUAAGGAAAGGGUGGGAUGGGAGUGUGUAAAGAGUUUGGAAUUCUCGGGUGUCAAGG | 0.812
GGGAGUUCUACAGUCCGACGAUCCACAGACAACACGCACCCACACAGACACGGAGGGAAGGGGUUGGGAUGGGGACAGGGUGCACAGCAGGGCGGGGUAGGACCCCAGCCCCUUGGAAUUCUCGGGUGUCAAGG | 1.73
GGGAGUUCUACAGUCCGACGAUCCCUGUGCUACACAUCGUAUGUACCGAAUCGGGGUUUGGGGAAAAAAAGGGGUUUUUGGGGAAAGUAUUAUGUUACGCCGUUCGGAUCUGCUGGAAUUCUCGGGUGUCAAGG | 0.212
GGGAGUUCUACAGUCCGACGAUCCUCAAGUCCUGUGCUACACAUCGUAUGUACCGAAUCGGAAAGGAAAGGUUUGGAAAGUAUUAUGUUACGCCGUUCGGAUCUGCACUUCCAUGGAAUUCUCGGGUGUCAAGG | -0.787
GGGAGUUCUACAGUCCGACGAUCGCAGGAAGUAAAAACAAAUGGAAAUGCUUCCGAUAGUGGCAGGGGUGGGGGUUGCUAAGGAAAGGGUGGGAUGGGAGUGGGUAAAGAGUUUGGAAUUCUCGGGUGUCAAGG | 1.03
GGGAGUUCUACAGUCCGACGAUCUCCCUGUCCAAGCUGAGCGCCCUCAACGAGAGCCUUGCUCAGGACAAGUUGGAUCUGAACUGCCUUGUCACCCAGGUACACUGUGCACCUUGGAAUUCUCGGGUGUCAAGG | 0.848
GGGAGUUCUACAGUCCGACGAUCUUUGUCCCUGCUCAGGAUGAGACUUCUGUGAGCAGCGAGGAUUUUGAUAUGAGCGACUCCACAUGGAUGUCAGCUGACCCGCACCUGGCCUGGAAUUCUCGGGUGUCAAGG | -0.184
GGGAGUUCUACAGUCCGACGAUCACCAUGCAGGUGGGCAUCUUUGGGAAGUGGGGCAAGGGGGGGAUAGGGAGGGGGGUAACACUUUGGGAACAGGUGGUCCCACGUCGUUUCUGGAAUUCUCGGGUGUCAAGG | 1.16
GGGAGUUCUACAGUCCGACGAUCUUCCGCGACUACCGGCGUGUGCACAAGCCGCCCAAGGUGCAGGAGAAGUGCCAGCUGGAGAUCAACUUCAACACGCUGCAGACCAAGCUGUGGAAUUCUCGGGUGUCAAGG | -1.25
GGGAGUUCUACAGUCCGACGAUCUCCUGUGCUACACAUCGUAUGUACCGAAUCGGGGUGGGGUUUUUUUGGGGAAAAAGGGGAAAGUAUUAUGUUACGCCGUUCGGAUCUGCAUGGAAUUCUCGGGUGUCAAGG | 0.658
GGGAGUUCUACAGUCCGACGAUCAGUCCUGUGCUACACAUCGUAUGUACCGAAUCAAACCCCCAAAUUUUUAAACCCAAAAAAGUAUUAUGUUACGCCGUUCGGAUCUGCACUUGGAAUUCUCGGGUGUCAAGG | -0.232
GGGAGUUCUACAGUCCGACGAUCUAACUUUAGAGGAGGAUCUGAUGGAUAUGGCAGUGGACGUGGAUUUGGGGAUGACUAUAAUGGGUAUGGAGGAGGACCUGGAGGUGGCAAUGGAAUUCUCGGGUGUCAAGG | 0.558
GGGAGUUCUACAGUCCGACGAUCUUUCUGUGUGCUUAGGUGCCCGAGCUACUGAGGGUCUAAGUCCGGGCAGCCGAAGAGUGUGGUAGGUAACGGUCCUCAGCGCAAGGGUCAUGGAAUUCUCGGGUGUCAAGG | -0.448
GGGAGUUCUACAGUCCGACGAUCAAGUCCUGUGCUACACAUCGUAUGUACCGAAUCGGGGCCCCGGCCCCGGCCCCGGGAAAGUAUUAUGUUACGCCGUUCGGAUCUGCACUUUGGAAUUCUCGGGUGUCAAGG | -0.975

Sample 2
Target: RNA binding protein fox-1 homolog 2, RRM domain, GST-SBP tag (RBFOX2, Homo sapiens, UniProt O43251-10, residues 100-194)
Technique: RNA Bind-n-Seq
Form: RNA
Medium: in vitro
Concentration: 365 nM
Setting: natural RNA segment, single round, ends assumed
Reference: no-protein control
Direction: higher = stronger binding
Residues (chain): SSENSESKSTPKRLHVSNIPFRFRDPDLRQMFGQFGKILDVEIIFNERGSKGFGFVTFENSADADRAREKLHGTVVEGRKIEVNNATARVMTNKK
Oligonucleotide | RBNS enrichment (R)
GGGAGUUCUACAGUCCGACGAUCUCUAUGGUGGAUGUUUAUGCUACGGUCCGCCAAUAGAAAAUGGAUUCUAUUAUGACAUGUACCUCGAAGAAGGGGGUGUGUCUAGCAAUGAUUUCUCUUCUCUGGAGGCUUGGAAUUCUCGGGUGCCAA | 0.486
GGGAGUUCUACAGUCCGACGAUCAUAGCUGUUUUAGCCGAGGGACUCGAUACCGACGUCCCCAGAUAUAGCUAGGCUAAGUCAAGAUCAACAGUCCGGGGUUGGUGGUGUUGGAUGAAACAUUCAUUUUUACCUGGAAUUCUCGGGUGCCAA | 0.256
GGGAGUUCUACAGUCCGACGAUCCUACAUACUAAAUCUCUCUCCUUUUUUAAUUUUAAUAUUUGUUAUCAUUUAUUUAUUGGUGCUACUGUUUAUCCGUAAUAAUUGUGGGGGAAAAAGAUAUUAACAUCACGUGGAAUUCUCGGGUGCCAA | 0.811
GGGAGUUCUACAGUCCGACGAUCAAUAAUACUACUUCUCUUUCCUUAUCUGAAUCUCUAACACCUCCAUUAGAAAAGUAGAGUUUGGAGAAAUCAUCAGAAACUAUUUUUAUUCCAAACAAAAUAACCGUAGAUGGAAUUCUCGGGUGCCAA | 0.9
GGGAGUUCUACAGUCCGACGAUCCCCACGCUGGGGAAAGCGGGAAGCGCUCGCUCCCUUUCCCCCAUUAGUGCUCUCUCUGCCUGGAUCCCGGCAGAAGCUAUGAAAGGGAAUAAAGAGAAAAGAAGUACCCAUGGAAUUCUCGGGUGCCAA | 0.278
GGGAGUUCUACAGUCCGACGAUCAUUUGACUUUGUAUGUCAGUUCCCUGGUUUUUUUGAUAUUGCAUCAUAGGACCUCUGGCAUUUUAGAAUUACUAGCUGAAAAAUUGUAAUGUACCAACAGAAAUAUUAUUUGGAAUUCUCGGGUGCCAA | 0.803
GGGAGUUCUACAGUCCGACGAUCCCCUAGCCAGGCUGUGGCUGUCCCUGGGCAUGCUGCAGUCCUCCUGUCCCUUCUCCCCAGUCAGUAUUACCCUUCGCGCCCAUAUUAUUUAGGAGGGCUUUAGGGGCUCCUGGAAUUCUCGGGUGCCAA | 0.445
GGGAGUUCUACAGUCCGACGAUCGAAUAUUUAUAGGCAAUACAGUCAAAGUUUCAAAAUAGCAUCACACAAAACAUGUUUAUAAAUGAACAGGAUGUAAUGUACAUAGAUGACAUUAAGAAAAUUUGUAUGAAUGGAAUUCUCGGGUGCCAA | 0.316
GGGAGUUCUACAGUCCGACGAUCCAAUGGUGUAGCGUCUUCCAAGGCCUUACUUUUUUUUCAGAAUGCUUUAAGUGUUGGCUGUAUGUGCUGGGUUCUCUAAAGAAGUUUCUCUUCCCGAGCUGUUUUUCCGAUGGAAUUCUCGGGUGCCAA | 2.92
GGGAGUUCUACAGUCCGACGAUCCUCUGCCUCAGCCUUACACCCAAGCAGUAGGUCUGUGCUCUCCCUGUCUCUAGGUCGCUGAGAGAGGUGCUUUUCUUCAUAAAACCUUUGGGGUUUGGAUUUCCCCAGGAUGGAAUUCUCGGGUGCCAA | 0.372
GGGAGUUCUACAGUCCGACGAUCAGAGUGUCCACCGGGCACCCGCCUCUGCCGGCCCCCCGCCGGGCGCCCCAACCCCAAUUUCUGGAGCUGCAGCCGUCCCGCGCCCCACCCAAGGUGGGCGCCUUCCCCUCUGGAAUUCUCGGGUGCCAA | 0.277
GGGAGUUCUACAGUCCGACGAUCUCCAUUAUUUCUCUACUUUUCCUUCCAGCAAACCUGAAACGUGAGGGAGAUGGAUUAAUGUGAGUAACAGGAAUGUGUCUUUAAAAAGCUAGAGUGGUUACAUUUAAUCAUGGAAUUCUCGGGUGCCAA | 0.345

Sample 3
Target: CCND3, cyclin fold, Cln2 fusion (human)
Technique: yeast growth competition, sequencing
Medium: yeast
Setting: weak parent motif
Reference: not given
Direction: higher = stronger binding
Parent: MASTL docking peptide (human); PMIAKNLMCELDE; partner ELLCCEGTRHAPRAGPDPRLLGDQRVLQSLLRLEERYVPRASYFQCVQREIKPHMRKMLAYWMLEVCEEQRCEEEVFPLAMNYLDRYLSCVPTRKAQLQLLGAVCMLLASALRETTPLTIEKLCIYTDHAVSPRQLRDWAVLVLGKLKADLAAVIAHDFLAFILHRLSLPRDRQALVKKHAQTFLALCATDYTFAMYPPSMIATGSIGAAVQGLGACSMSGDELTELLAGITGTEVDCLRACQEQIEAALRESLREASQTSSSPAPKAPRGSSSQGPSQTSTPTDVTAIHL
Variant | normalised enrichment score
C9K | -0.104
L7D | -0.083
M2W | -0.00328
M2Y | 0.126
M2L | 0.182
C9M | -0.0975
L11R | -0.399
L7I | -0.035
N6R | 0.285
M2D | 0.23
K5M | -0.226
E10L | 0.126
D12A | 0.0344
C9H | -0.151

Further values, each from its own experiment
Substance | target | assay | system | setting | how to read | measurement | value
PhoQ, residues 284 288 289 292 302 303 NLSRDF | PhoP, residues 12 14 15 18 19 IQFRS (Escherichia coli, UniProt P23836) | Sort-seq, item: YFP reporter | E. coli | PhoQ-PhoP variant library, with: 10 µM Mg2+ | reference: high Mg2+ state, higher = stronger signaling | fold induction | 6.63

For quick reference, copied from above (sample 1):
Oligonucleotide | log2 enrichment
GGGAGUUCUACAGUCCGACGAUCGCAGGAAGUAAAAACAAAUGGAAAUGCUUCGGAUAGUGGCAGGGGUGGGGGUUGCUAAGGAAAGGGUGGGAUGGGAGUGUGUAAAGAGUUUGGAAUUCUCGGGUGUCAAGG | 0.812
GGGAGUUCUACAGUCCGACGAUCUUUGUCCCUGCUCAGGAUGAGACUUCUGUGAGCAGCGAGGAUUUUGAUAUGAGCGACUCCACAUGGAUGUCAGCUGACCCGCACCUGGCCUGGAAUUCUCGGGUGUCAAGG | -0.184
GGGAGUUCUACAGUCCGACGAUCAAGUCCUGUGCUACACAUCGUAUGUACCGAAUCGGGGCCCCGGCCCCGGCCCCGGGAAAGUAUUAUGUUACGCCGUUCGGAUCUGCACUUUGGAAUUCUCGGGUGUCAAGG | -0.975
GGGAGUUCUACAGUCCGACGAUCCACAGACAACACGCACCCACACAGACACGGAGGGAAGGGGUUGGGAUGGGGACAGGGUGCACAGCAGGGCGGGGUAGGACCCCAGCCCCUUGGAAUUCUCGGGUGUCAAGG | 1.73
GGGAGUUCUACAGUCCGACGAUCUUCCGCGACUACCGGCGUGUGCACAAGCCGCCCAAGGUGCAGGAGAAGUGCCAGCUGGAGAUCAACUUCAACACGCUGCAGACCAAGCUGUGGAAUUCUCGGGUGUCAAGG | -1.25
